Measured values of several laboratories.
Parts stem from different laboratories: compare values within a part only. Positions count from the first letter of the parent shown.

Set 1
Target: RNA binding protein fox-1 homolog 2, RRM domain, GST-SBP tag (RBFOX2, Homo sapiens, UniProt O43251-10, residues 100-194)
Method: RNA Bind-n-Seq
Form: RNA
Sample: in vitro
Concentration: 365 nM
Setting: natural RNA segment, single round, ends assumed
Reference: no-protein control
Reading: higher = stronger binding
Shared flanks, not repeated: GGGAGUUCUACAGUCCGACGAUC … UGGAAUUCUCGGGUGCCAA
Residues (chain): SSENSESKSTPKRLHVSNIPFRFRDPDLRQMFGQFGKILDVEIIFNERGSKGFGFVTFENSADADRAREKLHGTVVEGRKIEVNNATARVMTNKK
Sequence	RBNS enrichment (R)
CUAUAGUCCCAGCUACUCGGAAGGCUGAAGCAGGAGAAUGGUAUGAAUCCAGGAGGUGGAGCUUGCAGUGAGCCGAGACCGUGCCACUGCACUCCAGCCUGGGCAACACA	0.49
CCAAGUCUCUGCUGGUUACGGAGCUAUACGGUACUGCAGGAGUUCUACAUACCUGCUGCGCAGAGACCAGCCCCGUGGACAGAGCUGGCAUGAUGGUUGCUACAGUGCUC	4.4
UGUUUGGUGUUGAAAUGGGGUCAUUUCAUUCCAUGUUAUGAAUGCAACCAGAAAGGGUGUCUGGGAUAUGAGCAGAUGUGGCAUCUUCCAGAAAUGAUCAUCUGGUUAUG	1.28
CCUCCCACCAGCUGGAUGCCCAUUUCUGAGCUCAGUCACUGAAGUGAGAGUGUGCUCCCCCAAGGGAGGCUUCUCUCCAUCAGGAUGGUACUUUGGGGGAACAAAAUAGU	0.245
UGUGUACUCAUUCUUUUCCCAAGCUGACGAGGUCUCUCCCGAGUGGCGCUUCGAAAGGCGUGCAUGCAGAAAUGGCCGAGGACAUGCAGGUUUGGGUGGUGUGCCUGCAG	11
AAAUCAUAUUCCAUUGUGUCAGUUAACAUAGAGUUUUAAAUGUAUGUAUUAUAAAUACCUGUAACCAAAAUCAUUUGAAGGCUUGAUAAAUUUUUAACAAAGUUUGUACA	0.963
GUGUAUAUGUUGGUUUAAUUAAUAAUAUGUACUAAGAAUGUCCUUAUUCUUGUGGUUAAAAACCUGCCUAAAUUAAAUUGGGCUUCAAUCACUGUAACCUGAUUCAUCCU	0.26
CCGGCGGGAGCCCCCGAAUGCUGCACCCAGCCACCCAGCAGAGCCCGUUCAUGGUUGAUCUCCACGAGCAGGUGCACCAGGGACCUGUCCCUCUGUCCUACACGGUCACC	0.37
CGGGGCUCUCCCUCCUCCUGCCAUCCUCCCCUCCCGCCCUUCCUGGCUACCUCCUCUGACAUGCGGUCAGAUAAGUCCCGUCUUGUUUGUGAGUACCACAGAAACGCCUG	1.05
UGACCUCUGGAGCACCAGGUGCCAGGACUUGUCUCCAUGUGUAUCCAUGCAUUAUAUACCCUGGUGCAAUCACACGACUGUCAUCUAAAGUCCUGGCCCUGGCCCUUACU	0.358
CCCCAACAUUAUAUACUCUGCUGCUUUUGUCUGGAAAACUCUACAGUGUUUGUGGGAUAUCCCCAAAGGAAAGCUGUGUUCUAAUUUUAUCAUUUCCAUCUGUCUGGUUA	0.474
CUGGCAUUAUGCAGCAGCCUCACACACCUGUCCUCUCCUUCUUCAUGUCCUACAGUUCUGCUAUCACCUGACUAGAAUAGCCCUCUAGGCAACAGUGCUCAAAUGUAUGA	0.474

Set 2
Target: Prothrombin, mature alpha-thrombin (F2, Homo sapiens, UniProt P00734)
Method: aptamer microarray, sandwich
Form: DNA with 2'F-ANA
Sample: in vitro
Concentration: 200 nM
Setting: whole 15-mer aptamer, many near background
Together with: Cy3 exosite-II aptamer, 400 nM
Reading: higher = stronger binding
Sequence: GGTTGGTGTGGTTGG
Modification	mean fluorescence intensity [a.u.]
2'F-ANA at 3 4 7 8 12 13	998
2'F-ANA at 2 6 8 9 10 11 12 14	80.3
2'F-ANA at 3 8 10 12 14	479
2'F-ANA at 1 2 3 9 12 13 14 15	142
2'F-ANA at 1 2 4 6 7 8 14	53.9
2'F-ANA at 2 4 7 8 10 11 13 15	81.6
2'F-ANA at 1 2 3 6 7 10 11	59.3
2'F-ANA at 1 4 5 8 11 12 13 14 15	51
2'F-ANA at 1 3 4 5 6 9 10 11 14	47.4
2'F-ANA at 2 5 6 7	73.1
2'F-ANA at 3 5 7 8 9 10 12 13 14	127
2'F-ANA at 4 6 8 9 10 14	57.7
2'F-ANA at 1 2 8 9 10 11 13 14 15	48.6
2'F-ANA at 1 3 5 8 9 10 11 12 13 14 15	95.1
2'F-ANA at 1 2 4 5 7 9 10 13 14	46.3
2'F-ANA at 1 2 3 5 6 7 10 13 14	45.2

Set 3
Target: Sal-like protein 4, full length isoform B (SALL4, Homo sapiens, UniProt Q9UJQ4-2, residues 1-616)
Method: universal PBM
Form: double-stranded DNA, one strand shown
Sample: in vitro
Concentration: not given
Setting: 8-mer, flanks averaged, mean of replicates
Reading: higher = stronger binding
Sequence	E-score
CAACGTCA	0.0579
ATTAAAGG	0.291
AAAGTCCA	-0.0431
CCCCTATC	-0.201
GGAGATGA	-0.00521
TAGGGTGA	-0.0263
GGGTAACC	-0.265
GATTCCAC	0.0398
CTCAACGC	-0.316
ATGAGACG	-0.0579
AGCCATTA	0.185
CGTTAAAA	0.153
CTCTACAG	-0.074
GGTCGGGA	-0.334
ATGGGAAG	0.0163
GCCAGCAA	-0.14
AGTGCGAC	-0.144
ATTTAAGA	0.136
ACGCATAT	0.237
ACGGCAGT	-0.167
ACTTCTTC	0.00882
GCTTAAAC	0.0527

Set 4
Substance: PhoQ, residues 284 288 289 292 302 303 SLKLQV
Method: Sort-seq
Refers to: YFP reporter
Sample: E. coli
Setting: PhoQ-PhoP variant library
Together with: 10 µM Mg2+
Reference: high Mg2+ state
Reading: higher = stronger signaling
target	fold induction
PhoP, residues 12 14 15 18 19 VHTVL (Escherichia coli, UniProt P23836)	9.74
PhoP, residues 12 14 15 18 19 ICWRQ (Escherichia coli, UniProt P23836)	16.9
PhoP, residues 12 14 15 18 19 TQCLL (Escherichia coli, UniProt P23836)	6.53

Set 5
Target: CCNF, cyclin fold, Cln2 fusion (human)
Method: yeast growth competition, sequencing
Sample: yeast
Setting: strong parent motif
Reference: not given
Reading: higher = stronger binding
Starting sequence: SAMHD1 docking peptide (human); ASKSRVQLFKDDP
Substitution	normalised enrichment score
ASKNRVQLFKDDP [S4N]	0.337
AEKSRVQLFKDDP [S2E]	1.79
ASKSRVQMFKDDP [L8M]	0.245
ASDSRVQLFKDDP [K3D]	0.263
ASKSRVQLFMDDP [K10M]	0.634
ASKSYVQLFKDDP [R5Y]	-0.0352
ASKSSVQLFKDDP [R5S]	-0.114
ASKSRVQLTKDDP [F9T]	0.0869
ASKSRVQAFKDDP [L8A]	-0.0746
ASKSRVQLFKQDP [D11Q]	0.571
ASKSTVQLFKDDP [R5T]	-0.0727
ASKKRVQLFKDDP [S4K]	0.692
ASKSRVQLFKDYP [D12Y]	2.56
AAKSRVQLFKDDP [S2A]	1.56
ASKSRVQLFHDDP [K10H]	0.36
ASKSRVQLFKDVP [D12V]	1.64
ASKSRVQLFKDFP [D12F]	1.27
ASKSHVQLFKDDP [R5H]	-0.0267
ADKSRVQLFKDDP [S2D]	1.63
ASKSRVQLFLDDP [K10L]	1.26
ASKSRPQLFKDDP [V6P]	-0.194
ASKSRVQLFKDLP [D12L]	1.11
ASKSRVQLQKDDP [F9Q]	-0.166
ASKSRHQLFKDDP [V6H]	0.111
ASKSRVPLFKDDP [Q7P]	-0.537

Set 6
Target: ABI1, truncated, D143A, DHFR fusion (Arabidopsis thaliana)
Method: DHFR PCA, deep sequencing
Sample: yeast
Setting: methotrexate growth selection, single substitutions
Together with: (+)-ABA 17 µM
Reference: wild-type fitted maximum
Reading: higher = stronger binding
Starting sequence: PYL1, truncated, DHFR fusion (Arabidopsis thaliana); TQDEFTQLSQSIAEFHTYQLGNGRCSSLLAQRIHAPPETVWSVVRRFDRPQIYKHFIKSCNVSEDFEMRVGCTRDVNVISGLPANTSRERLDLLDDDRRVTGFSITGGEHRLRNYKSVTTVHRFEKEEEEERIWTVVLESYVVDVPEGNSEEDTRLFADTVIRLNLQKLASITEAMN
Substitution	relative binding score [%]
V43N	7.43
S59T	82.5
G81K	2.22
V40A	14.7
I172N	16.2
F47S	-6.57
V121F	-2.05
W134T	100
V142C	82.5
W134S	103
R132W	54.6
D153C	9.43
P146T	19.4
V136Y	68.4
C25P	6.34
R113K	101
